Measurements pooled from the literature.
“And” joins repeats or separate records; there may be more than shown. ± marks the error that the study gave. Values after ≈ are worked out from the molar mass of the structure shown.

Structure (SMILES)	test	system	conditions	scale	quantity	value
CC(=O)NCCCC[C@@H]1NC(=O)[C@H](Cc2c[nH]c3c(C)cccc23)NC(=O)[C@H]([C@@H](C)O)NC(=O)[C@H](CC(N)=O)NC(=O)[C@@H](NC(C)=O)C(C)(C)SSC(C)(C)[C@@H](C(=O)N[C@@H](Cc2ccc(OCCN)cc2)C(=O)N[C@@H](Cc2ccc3ccccc3c2)C(=O)NC2(C(=O)N[C@@H](CCC(=O)O)C(=O)N[C@@H](CC(N)=O)C(=O)N[C@@H](Cc3cccnc3)C(=O)N(C)CC(N)=O)CCOCC2)NC1=O		human, blood	0.013 µM, 2 h		blood to plasma ratio	0.53 ± 0.02
C#Cc1c(F)ccc2cc(O)cc(-c3ncc4c(N5CC6CCC(C5)N6C(=O)OC(C)OC(=O)CCC5CCCC5)nc(OC[C@@]56CCCN5C[C@H](F)C6)nc4c3F)c12 (some centres unmarked)	chemical stability	simulated intestinal fluid	1 µM, 30 min		compound remaining	36.3%
CCCCCCCCCCCC(=O)C(C)C(=O)N1CCC[C@H]1C(=O)NC(C)(C)C(=O)NC(C)(C)C(=O)NC(C)(C)C(=O)N[C@](C)(CC)C(=O)NCCC(=O)N[C@@H](C)C(=O)N[C@](C)(CC)C(=O)N[C@@H](C)C(=O)N[C@@H](CC(C)C)C(=O)N[C@](C)(CC)C(=O)NCCC(=O)N[C@@H](C)C(=O)N[C@](C)(CC)C(=O)NCCC(=O)N[C@@H](C)C(=O)NC(C)(C)C(=O)NC(C)(C)C(=O)NC(C)(C)C(=O)N[C@@H](C)C(=O)N[C@@H](CC(=O)O)C(=O)O (some centres unmarked)	LC-MS	buffer with trypsin	40 µM, 10 min, pH 7.5, 37 °C	relative to: 0 h	remaining intact peptide	80.9% and 98.4% and 100%
CC(C)C[C@@H](NC(=O)[C@@H](CCCNC(=N)N)NC(=O)[C@@H](Cc1c[nH]cn1)NC(=O)[C@@H](Cc1c[nH]c2ccccc12)NC(=O)[C@@H](Cc1c[nH]cn1)NC(=O)[C@@H](Cc1ccccc1)NC(=O)[C@H](NC(=O)[C@@H](Cc1ccc(O)cc1)NC(=O)CNC(=O)CNC(=O)CCOCCOCCOCCNC(=O)CN1CCN(CC(=O)O)CCN(CC(=O)O)CC1)[C@H](C)O)C(=O)N[C@H](CC(N)=O)C(=O)N1CCC[C@@H]1C(=O)O [gallium-68 labelled]		C57BL/6 mice, male	intravenous, 1.85 MBq, 60 min	relative to: tumour over heart	tissue ratio	5.66 ± 0.68
CSCC[C@@H]1NC(=O)[C@H](C(C)C)NC(=O)[C@H](CCCNC(=N)N)NC(=O)CNC(=O)[C@@H]2CCCN2C(=O)[C@@H](NC(=O)CNC(=O)[C@H](CO)NC(=O)CNC(=O)[C@H](CO)NC(=S)Nc2ccc(C[C@H]3CN(CC(=O)O)CCN(CC(=O)O)CCN3CC(=O)O)cc2)CSSC[C@@H](C(N)=O)NC(=O)[C@@H]2CCCN2C(=O)CNC(=O)[C@H](CCC(=O)O)NC(=O)[C@H](CC(=O)O)NC(=O)[C@H](CC(=O)O)NC(=O)CNC(=O)[C@H](CC(C)C)NC(=O)[C@H](Cc2c[nH]cn2)NC(=O)[C@H](CC(C)C)NC(=O)CNC(=O)[C@H](Cc2c[nH]cn2)NC1=O [copper-64 labelled]	dynamic PET	CD rat, myocardial infarction, left ventricular blood pool	intravenous, 18.5 MBq		blood elimination half-life	26.2 ± 4.6 min
CSCC[C@H](NC(=O)CNC(=O)[C@H](CCCCN)NC(=O)[C@H](CC(C)C)NC(=O)[C@@H]1CCCN1C(=O)[C@H](CO)NC(=O)[C@H](Cc1c[nH]cn1)NC(=O)[C@H](Cc1c[nH]c2ccccc12)NC(=O)[C@H](CCCNC(=N)N)NC(=O)[C@H](CC(C)C)NC(=O)[C@H](CCCNC(=N)N)NC(=O)[C@H](Cc1c[nH]c2ccccc12)NC(=O)[C@H](CS)NC(=O)CCCCCNC(=O)CN1CCN(CC(=O)O)CCN(CC(=O)O)CCN(CC(=O)O)CC1)C(=O)O [copper-64 labelled]		C57BL/6J mice, B16-F10 tumour	intravenous, 1.85 MBq, 2 h	relative to: tumour over muscle	tumour-to-muscle ratio	10.8
N#Cc1ccc(N2N=C(c3ccc(C(=O)O)cc3)CC2C2CCCC2)cc1Cl (centres unmarked)		PBS	90 min		kinetic solubility	32 µM (≈ 12.6 µg/mL)
CCCC[C@H]1C(=O)N(C)[C@@H](CCCC)C(=O)N[C@@H](CCCNC(=O)CN2CCN(CC(=O)O)CCN(CC(=O)O)CCN(CC(=O)O)CC2)C(=O)N[C@H](C(=O)NCC(N)=O)CSCC(=O)N[C@@H](Cc2ccc(O)cc2)C(=O)N(C)[C@@H](C)C(=O)N[C@@H](CC(N)=O)C(=O)N2CCC[C@H]2C(=O)N[C@@H](Cc2c[nH]cn2)C(=O)N[C@@H](CC(C)C)C(=O)N(C)CC(=O)N[C@@H](Cc2c[nH]c3ccccc23)C(=O)N[C@@H](CO)C(=O)N[C@@H](Cc2c[nH]c3ccccc23)C(=O)N1C [gallium-68 labelled]		NOD/SCID mice, CHO-hPD-L1 xenograft, kidney	60 min, together with: blocking agent 50 µg co-injected		tissue uptake	56.1 ± 16.4 %ID/g
O=C1NC2(CC2)COc2ncc(F)cc2[C@H]2COCCN2c2ccn3ncc1c3n2		Sprague-Dawley rat, female, kidneys	oral, 2.5 mg/kg/day, 4 weeks dosing, end of recovery		organ-to-brain weight ratio	94.5 ± 4.42%
CC[C@H](C)[C@H](NC(=O)[C@H](CCCNC(=N)N)NC(=O)[C@H](CCCCN)NC(=O)[C@H](Cc1ccc(O)cc1)NC(=O)[C@H](CC(=O)O)NC(=O)[C@H](C)NC(=O)CNC(=O)CCOCCOCCOCCNC(=O)CN1CCN(CC(=O)O)CCN(CC(=O)O)CCN(CC(=O)O)CC1)C(=O)N[C@H](C(=O)N[C@H](C(=O)N[C@@H](CCCCN)C(=O)N[C@H](C(=O)N[C@@H](CC(N)=O)C(N)=O)C(C)C)C(C)C)[C@@H](C)O [copper-64 labelled]	ex vivo gamma counting	C57BL/6J male mice, B16-F10 tumour, brain	intravenous, 1.85 MBq, 5 min		tissue uptake	0.296 ± 0.046 %ID/g
C/C(=N\OCCCN1CCCCC1)c1ccc(C(F)(F)F)cc1		C57BL/6 mouse, plasma	intravenous, 5 mg/kg, 4 h		plasma concentration	70 ± 18.2 ng/mL
CSCC[C@H](N)C(=O)N[C@@H](C)C(=O)N[C@@H](Cc1c[nH]c2ccccc12)C(=O)N[C@@H](Cc1c[nH]cn1)C(=O)N[C@@H](CC(=O)O)C(=O)N[C@@H](CC(=O)O)C(=O)N[C@@H](CCC(=O)O)C(=O)N[C@@H](CCC(=O)O)C(=O)N[C@@H](Cc1ccccc1)C(=O)N[C@@H](C)C(=O)N[C@@H](CCCNC(=N)N)C(=O)N[C@@H](CCCNC(=N)N)C(=O)N[C@@H](CCCNC(=N)N)C(=O)N[C@@H](CCCNC(=N)N)C(=O)NCCCCCC(=O)NCCCCC(NC(=O)CCCCCNC(=O)[C@H](CCCNC(=N)N)NC(=O)[C@H](CCCNC(=N)N)NC(=O)[C@H](CCCNC(=N)N)NC(=O)[C@H](CCCNC(=N)N)NC(=O)[C@H](C)NC(=O)[C@H](Cc1ccccc1)NC(=O)[C@H](CCC(=O)O)NC(=O)[C@H](CCC(=O)O)NC(=O)[C@H](CC(=O)O)NC(=O)[C@H](CC(=O)O)NC(=O)[C@H](Cc1c[nH]cn1)NC(=O)[C@H](Cc1c[nH]c2ccccc12)NC(=O)[C@H](C)NC(=O)[C@@H](N)CCSC)C(=O)NCCCCC(NC(=O)C(CCCCNC(=O)CCCCCNC(=O)[C@H](CCCNC(=N)N)NC(=O)[C@H](CCCNC(=N)N)NC(=O)[C@H](CCCNC(=N)N)NC(=O)[C@H](CCCNC(=N)N)NC(=O)[C@H](C)NC(=O)[C@H](Cc1ccccc1)NC(=O)[C@H](CCC(=O)O)NC(=O)[C@H](CCC(=O)O)NC(=O)[C@H](CC(=O)O)NC(=O)[C@H](CC(=O)O)NC(=O)[C@H](Cc1c[nH]cn1)NC(=O)[C@H](Cc1c[nH]c2ccccc12)NC(=O)[C@H](C)NC(=O)[C@@H](N)CCSC)NC(=O)CCCCCNC(=O)[C@H](CCCNC(=N)N)NC(=O)[C@H](CCCNC(=N)N)NC(=O)[C@H](CCCNC(=N)N)NC(=O)[C@H](CCCNC(=N)N)NC(=O)[C@H](C)NC(=O)[C@H](Cc1ccccc1)NC(=O)[C@H](CCC(=O)O)NC(=O)[C@H](CCC(=O)O)NC(=O)[C@H](CC(=O)O)NC(=O)[C@H](CC(=O)O)NC(=O)[C@H](Cc1c[nH]cn1)NC(=O)[C@H](Cc1c[nH]c2ccccc12)NC(=O)[C@H](C)NC(=O)[C@@H](N)CCSC)C(N)=O (some centres unmarked)		C57BL/6 mouse female, pancreas	dose not given, 6 h	relative to: total	tissue distribution	0.85% and 1.33% and 0.15%
CC[C@H](C)[C@H](NC(=O)CNC(=O)[C@H](CCSC)NC(=O)[C@H](CCC(N)=O)NC(=O)[C@H](C)NC(=O)[C@H](CCC(N)=O)NC(=O)[C@@H](NC(=O)[C@H](CC(C)C)NC(=O)[C@H](C)NC(=O)[C@H](CO)NC(=O)[C@H](CCSC)NC(=O)[C@H](CCC(=O)O)NC(=O)[C@H](CC(C)C)NC(=O)[C@H](Cc1ccc(O)cc1)NC(=O)[C@H](CO)NC(=O)[C@H](CCC(=O)O)NC(=O)[C@H](CCC(N)=O)NC(=O)[C@H](CCCNC(=N)N)NC(=O)[C@H](CCCCN)NC(=O)[C@H](CC(=O)O)NC(=O)[C@H](CC(C)C)NC(=O)[C@H](CC(N)=O)NC(=O)[C@H](Cc1ccccc1)NC(=O)[C@H](CCC(=O)O)NC(=O)[C@H](CCCCN)NC(=O)[C@@H](NC(=O)[C@H](CC(C)C)NC(=O)[C@H](CCC(=O)O)NC(=O)[C@H](CCC(=O)O)NC(=O)[C@@H](NC(=O)[C@@H](NC(=O)[C@H](CCCNC(=N)N)NC(=O)[C@H](CCCCN)NC(=O)[C@H](C)NC(=O)[C@H](Cc1ccccc1)NC(=O)[C@H](CCC(=O)O)NC(=O)[C@H](CCC(=O)O)NC(=O)[C@H](CC(C)C)NC(=O)[C@@H](N)CO)C(C)C)C(C)C)C(C)C)[C@@H](C)CC)C(=O)N[C@@H](CO)C(=O)N[C@@H](CCC(=O)O)C(=O)N[C@@H](CCCNC(=N)N)C(=O)N[C@H](C(=O)N[C@H](C(=O)N[C@@H](CCC(=O)O)C(=O)N[C@H](C(=O)N[C@H](C(=O)N[C@@H](CC(C)C)C(=O)N[C@@H](CCCNC(=N)N)C(=O)N[C@@H](Cc1c[nH]cn1)C(=O)N[C@@H](C)C(=O)N[C@@H](C)C(=O)N[C@@H](CCC(N)=O)C(=O)N[C@H](C(=O)N[C@@H](CC(C)C)C(=O)N[C@@H](CCCCN)C(=O)O)[C@@H](C)O)C(C)C)[C@@H](C)CC)[C@@H](C)CC)[C@@H](C)CC		CD-1 ICR mouse, male, plasma	intravenous, 1 mg/kg		clearance	6.5 mL/min/kg
CC(C)[C@@H]1NC(=O)CNC(=O)[C@H](CC(N)=O)NC(=O)[C@H](CCCNC(=N)N)NC(=O)[C@H](Cc2ccc(O)cc2)NC(=O)[C@H](C(C)C)NC(=O)[C@@H](NC(=O)[C@@H](NC(=O)[C@H](CC(N)=O)NC(=O)[C@H](Cc2c[nH]c3ccccc23)NC(=O)[C@H](C)NC(=O)[C@H](Cc2ccccc2)NC(=O)CNC(=O)[C@H](CCCCN)NC(=O)[C@H](Cc2ccccc2)NC(=O)[C@H](Cc2ccccc2)NC(=O)[C@H](CCCCN)NC(=O)OCC2c3ccccc3-c3ccccc32)C(C)C)CSSC[C@@H](C(=O)N[C@@H](Cc2c[nH]cn2)C(=O)N[C@@H](CCCNC(=N)N)C(=O)N[C@@H](CCCNC(=N)N)C(=O)N[C@@H](C)C(=O)N[C@@H](CC(N)=O)C(N)=O)NC(=O)[C@H](C(C)C)NC(=O)[C@H](CCCNC(=N)N)NC1=O		ICR mice, serum	intraductal mammary, 10 mg/kg, day 5		total protein	52.7 ± 0.77 g/L
